Published values gathered from unrelated publications.
Each line is one published result; not all experiments were run side by side.
ACTA1: ACTA1, pyrene label (Oryctolagus cuniculus, UniProt P68135)
T1: Psmc3ip/Mnd1 K63A/Y65A/K67A (Mus musculus); chain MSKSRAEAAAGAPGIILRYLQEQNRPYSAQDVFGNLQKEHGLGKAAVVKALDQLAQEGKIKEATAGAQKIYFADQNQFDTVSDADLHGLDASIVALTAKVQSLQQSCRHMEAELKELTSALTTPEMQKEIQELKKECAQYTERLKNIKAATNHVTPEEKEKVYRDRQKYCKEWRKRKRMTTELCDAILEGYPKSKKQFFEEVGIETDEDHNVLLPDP; chain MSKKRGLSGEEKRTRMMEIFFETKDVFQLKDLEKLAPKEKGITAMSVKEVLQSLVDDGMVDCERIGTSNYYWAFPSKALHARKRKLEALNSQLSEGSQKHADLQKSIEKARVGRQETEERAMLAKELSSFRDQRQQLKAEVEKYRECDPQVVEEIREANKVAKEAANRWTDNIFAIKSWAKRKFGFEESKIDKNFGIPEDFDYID
B1: Fmnl3 555-954 (Mus musculus, UniProt Q6ZPF4); chain GLSAIRIKKPIKTKFRLPVFNWTALKPNQINGTVFSELDDEKILEDLDLDRFEELFKTKAQGPALDLICSKNKTAQKAASKVTLLEANRAKNLAITLRKAGRSAEEICRAIHTFDLQTLPVDFVECLMRFLPTEAEVKLLRQYERERQPLEELAAEDRFMLLFSKVERLTQRMAGMAFLGNFQDNLQMLTPQLNAIIAASASVKSSQKLKQMLEIILALGNYMNSSKRGAVYGFKLQSLDLLLDTKSTDRKMTLLHFIALTVKEKYPELANFWQELHFVEKAAAVSLENVLLDVKELGRGMELIRRECSIHDNSVLRNFLSTNEGKLDKLQRDAKTAEEAYNAVVRYFGESPKTTPPSVFFPVFVRFIRSYKEAEQENEARKKQEEVMREKQLAQEAKKL
B2: Fmnl3 555-954 M742A (Mus musculus, UniProt Q6ZPF4); chain GLSAIRIKKPIKTKFRLPVFNWTALKPNQINGTVFSELDDEKILEDLDLDRFEELFKTKAQGPALDLICSKNKTAQKAASKVTLLEANRAKNLAITLRKAGRSAEEICRAIHTFDLQTLPVDFVECLMRFLPTEAEVKLLRQYERERQPLEELAAEDRFMLLFSKVERLTQRMAGMAFLGNFQDNLQALTPQLNAIIAASASVKSSQKLKQMLEIILALGNYMNSSKRGAVYGFKLQSLDLLLDTKSTDRKMTLLHFIALTVKEKYPELANFWQELHFVEKAAAVSLENVLLDVKELGRGMELIRRECSIHDNSVLRNFLSTNEGKLDKLQRDAKTAEEAYNAVVRYFGESPKTTPPSVFFPVFVRFIRSYKEAEQENEARKKQEEVMREKQLAQEAKKL
B3: Gp1.2 residues 2-end 2-85 (bacteriophage T7, UniProt P03780); sequence looked up; chain GRLYSGNLAAFKAATNKLFQLDLAVIYDDWYDAYTRKDCIRLRIEDRSGNLIDTSTFYHHDEDVLFNMCTDWLNHMYDQLKDWK
B4: kaiA (Synechococcus elongatus, UniProt Q79PF6); chain MLSQIAICIWVESTAILQDCQRALSADRYQLQVCESGEMLLEYAQTHRDQIDCLILVAANPSFRAVVQQLCFEGVVVPAIVVGDRDSEDPDEPAKEQLYHSAELHLGIHQLEQLPYQVDAALAEFLRLAPVETMADHIMLMGANHDPELSSQQRDLAQRLQERLGYLGVYYKRDPDRFLRNLPAYESQKLHQAMQTSYREIVLSYFSPNSNLNQSIDNFVNMAFFADVPVTKVVEIHMELMDEFAKKLRVEGRSEDILLDYRLTLIDVIAHLCEMYRRSIPRET
B5: DMC1 (Homo sapiens, UniProt Q14565); chain MKEDQVVAEEPGFQDEEESLFQDIDLLQKHGINVADIKKLKSVGICTIKGIQMTTRRALCNVKGLSEAKVDKIKEAANKLIEPGFLTAFEYSEKRKMVFHITTGSQEFDKLLGGGIESMAITEAFGEFRTGKTQLSHTLCVTAQLPGAGGYPGGKIIFIDTENTFRPDRLRDIADRFNVDHDAVLDNVLYARAYTSEHQMELLDYVAAKFHEEAGIFKLLIIDSIMALFRVDFSGRGELAERQQKLAQMLSRLQKISEEYNVAVFVTNQMTADPGATMTFQADPKKPIGGHILAHASTTRISLRKGRGELRIAKIYDSPEMPENEATFAITAGGIGDAKE
B6: HNRNPF 192-415 (Homo sapiens, UniProt P52597); chain RSYSDPPLKFMSVQRPGPYDRPGTARRYIGIVKQAGLERMRPGAYSTGYGGYEEYSGLSDGYGFTTDLFGRDLSYCLSGMYDHRYGDSEFTVQSTTGHCVHMRGLPYKATENDIYNFFSPLNPVRVHIEIGPDGRVTGEADVEFATHEEAVAAMSKDRANMQHRYIELFLNSTTGASNGAYSSQVMQGMGVSAAQATYSGLESQSVSGCYGAGYSGQNSMGGYD
B7: colicin N T and R domains (Escherichia coli); chain MGSNGADNAHNNAFGGGKNPGIGNTSGAGSNGSASSNRGNSNGWSWSNKPHKNDGFHSDGSYHITFHGDNNSKPKPGGNSGNRGNNGDGASAKVGEITITPDNSKPGRYISSNPEYSLLAKLIDAESIKGTEVYTFHTRKGQYVKVTVPDSNIDKMRVDYVNWKGPKYNNKLVKRFVSQFLL
B8: CTF4 471-927 (Saccharomyces cerevisiae, UniProt Q01454); chain TGKFRYMPFSPAGTPFGFTDRRYLTMNEVGYVSTVKNSEQYSITVSFFDVGRFREYHFEDLFGYDLCFLNEKGTLFGQSKTGQIQYRPHDSIHSNWTKIIPLQAGERITSVAATPVRVIVGTSLGYFRSFNQFGVPFAVEKTSPIVALTAQNYRVFSVHYSQFHGLSYSLSELGTSSKRYYKRECPLPMSLPNINSDMKKDANLDYYNFNPMGIKSLFFSSYGDPCIFGSDNTLLLLSKWRSPEESKWLPILDSNMEIWKMSGGKETTDIHVWPLALAYDTLNCILVKGKHIWPEFPLPLPSEMEIRMPVFVKSKLLEENKAILNKKNEIGADTEAEEGEEDKEIQIPVSMAAEEEYLRSKVLSELLTDTLENDGEMYGNENEVLAALNGAYDKALLRLFASACSDQNVEKALSLAHELKQDRALTAAVKISERAELPSLVKKINNIREARYEQQLK

| Substance | target or system | assay | test system | conditions | scale | endpoint | value |
| --- | --- | --- | --- | --- | --- | --- | --- |
| Dync1i1 (Mus musculus, UniProt O88485) | Dync1h1 F580Y (Mus musculus, UniProt Q9JHU4) | co-sedimentation | brain extract | added: taxol 20 µM, AMP-PNP 1 mM | reference: wild type, higher = more dynein bound | DIC1/DHC ratio | 1.4 fold |
| RmS-3, glycosylated (Rhipicephalus microplus) (sequence not shown) | F2 thrombin (Bos taurus) | chromogenic substrate hydrolysis, inhibitor | – | 1 µM | – | protease inhibition | < 20% |
| B1 (Fmnl3 555-954) | ACTA1 | elongation termination | – | formin 100 nM, added: capping protein 20 nM | – | capping protein protection time | 413 s |
| melittin | – | CD titration | POPC 50% POPG 50% vesicles | pH 7.0, 40 °C | – | free energy of partitioning | -7.82 kcal/mol |
| SUV39H1 chromodomain | Histone H3.1 2-14 K9L (Homo sapiens, UniProt P68431) | reporter luciferase | HepG2 | K9L mutant, in cells | – | firefly luciferase signal | 2.1e+07 p/s/cm^2/sr |
| B2 (Fmnl3 555-954 M742A) | ACTA1 | elongation termination | – | formin 100 nM, added: capping protein 20 nM | – | capping protein protection time | 295 s |
| Ac-SKEELERLFNVLNSQNNPTVPMRDRRLPYSFFQGP-NH2 (YAP TEAD-binding domain 15-49 (Trichoplax adhaerens); N-acetyl, C-amide) | TEAD4 217-434 (Homo sapiens, UniProt Q15561) | competition with ligand, AlphaScreen | peptide | – | – | IC50 | 880 nM |
| B3 (Gp1.2 residues 2-end 2-85) | dgt 1-505 (Escherichia coli, UniProt P15723) | dGTP hydrolysis inhibition, inhibitor | – | from kcat decrease, added: dGTP | – | IC50 | 66 nM |
| B4 (kaiA) | KaiC dephosphorylated 1-519 (Synechococcus elongatus, UniProt Q79PF4) | SDS-PAGE | – | added: KaiA | higher = faster | rate constant of priming phosphorylation | 0.35 h⁻¹ |
| Sambucus nigra agglutinin-I (Sambucus nigra) | KLK3 (Homo sapiens, UniProt P07288) | SPR | – | – | – | surface coverage | 10.1 pg·mm^−2 |
| B5 (DMC1) | T1, Psmc3ip/Mnd1 K63A/Y65A/K67A (Mus musculus) | pull-down | – | – | – | binding | binds |
| B6 (HNRNPF 192-415) | HNRNPH1 192-449 (Homo sapiens, UniProt P31943) | trapping in hydrogel, hydrogel binding | – | pH 7.5, 4 °C, NaCl 200 mM | – | binding | binds |
| B7 (colicin N T and R domains) | ompF mature, trimer (Escherichia coli, UniProt P02931) | ITC | – | 25 °C | – | molecule per partner | 2.76 |
| B8 (CTF4 471-927) | PSF1/PSF2/PSF3/SLD5 GINS, Psf1 1-164 (Saccharomyces cerevisiae) | SEC | – | – | – | binding | binds |

Repeated from above:
| Substance | target or system | assay | test system | conditions | scale | endpoint | value |
| --- | --- | --- | --- | --- | --- | --- | --- |
| RmS-3, glycosylated (Rhipicephalus microplus) (sequence not shown) | F2 thrombin (Bos taurus) | chromogenic substrate hydrolysis, inhibitor | – | 1 µM | – | protease inhibition | < 20% |
| B1 (Fmnl3 555-954) | ACTA1 | elongation termination | – | formin 100 nM, added: capping protein 20 nM | – | capping protein protection time | 413 s |
